Assay results collected from several papers.
Compare with care: the assays were run in different laboratories. Values joined by “and” are separate records of one study, mostly repeats; a detail may differ. ± marks the error that the study gave.
Target: Broad substrate specificity ATP-binding cassette transporter ABCG2 (ABCG2, Homo sapiens, UniProt Q9UNQ0)
Residues used in one study (Q9UNQ0 1-655): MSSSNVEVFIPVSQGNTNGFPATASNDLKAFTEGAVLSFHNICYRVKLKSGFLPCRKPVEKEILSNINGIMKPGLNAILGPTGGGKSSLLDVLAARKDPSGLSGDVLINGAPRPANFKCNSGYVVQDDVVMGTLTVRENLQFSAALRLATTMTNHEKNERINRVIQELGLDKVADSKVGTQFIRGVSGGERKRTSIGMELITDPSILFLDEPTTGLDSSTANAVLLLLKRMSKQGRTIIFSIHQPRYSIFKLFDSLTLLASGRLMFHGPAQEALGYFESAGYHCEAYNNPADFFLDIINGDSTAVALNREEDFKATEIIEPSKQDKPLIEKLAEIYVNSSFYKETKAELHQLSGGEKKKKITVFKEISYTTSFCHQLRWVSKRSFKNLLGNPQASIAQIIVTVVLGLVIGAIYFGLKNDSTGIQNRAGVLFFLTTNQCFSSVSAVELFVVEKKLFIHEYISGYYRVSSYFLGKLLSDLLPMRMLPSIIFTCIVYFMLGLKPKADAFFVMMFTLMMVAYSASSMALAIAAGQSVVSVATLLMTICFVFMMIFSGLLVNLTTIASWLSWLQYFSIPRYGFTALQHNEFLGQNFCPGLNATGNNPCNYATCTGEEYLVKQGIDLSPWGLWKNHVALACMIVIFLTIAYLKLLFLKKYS

SMILES	test	test system	setting	how to read	endpoint	result
CC(C)c1nc(N(C)S(C)(=O)=O)nc(-c2ccc(F)cc2)c1/C=C/[C@@H](O)C[C@@H](O)CC(=O)O	substrate	human EpiIntestinal microtissues	5 µM, 2 h, added: Ko143 5 µM		Papp (A to B)	35 ± 1 nm/s
CCOc1cc2ncc(C#N)c(Nc3ccc(OCc4ccccn4)c(Cl)c3)c2cc1NC(=O)/C=C/CN(C)C	bidirectional transwell permeability	MDCKII cells transfected with ABCG2	1 µM, 1 h, pH 7.4		Papp A-B	10.7 ± 2.1 nm/s
C[C@]12CCCN1CC1=NNC(=O)c3cc(F)cc4[nH]c2c1c34	substrate	membrane vesicles	30 µM	baseline: ATP over AMP	uptake ratio	0.926
Cc1cc(=O)oc2cc(O[C@@H]3O[C@H](C(=O)O)[C@@H](O)[C@H](O)[C@H]3O)ccc12	transport	membrane vesicles			Km	27 µM
C/C(O)=C(\C#N)C(=O)Nc1ccc(C(F)(F)F)cc1		MDCK-II cells expressing ABCG2	5 µM		efflux ratio	40.9
COc1ccc2c3c([nH]c2c1)[C@H](CC(C)C)N1C(=O)[C@H](CC(=O)NC(C)C)NC(=O)[C@@H]1C3	inhibitor, item: protoporphyrin IX	A549	0.01 µM, 2 h, added: 1 mM ALA		inhibition	2.5% and 38.4% and -0.0726% and 14.8%
Cc1cc(Nc2ncnc3ccc(NC4=NC(C)(C)CO4)cc23)ccc1Oc1ccn2ncnc2c1	bidirectional transwell permeability	MDCKII cells transfected with ABCG2	1 µM, 1 h, pH 7.4		efflux ratio	7.79 ± 1.41
C/C(O)=C(\C#N)C(=O)Nc1ccc(C(F)(F)F)cc1		Caco-2	1 µM, 2 h, pH 7.4, added: 2 µM Ko143		Papp A to B	189 nm/s
CCc1cc(/C(C)=N/OCc2ccc(C3CCCCC3)c(C(F)(F)F)c2)ccc1CN1CC(C(=O)O)C1	transport, inhibitor	MDCK-II transfected with ABCG2	up to 24.7 µM, 40 min, added: PhIP 1 µM		maximal inhibition	-10.2%
CS(=O)(=O)CCNCc1ccc(-c2ccc3ncnc(Nc4ccc(OCc5cccc(F)c5)c(Cl)c4)c3c2)o1	bidirectional transwell permeability	MDCKII cells transfected with ABCG2	1 µM, 1 h, pH 7.4		Papp A-B	5.3 ± 3.9 nm/s
CC(C)c1nc(N(C)S(C)(=O)=O)nc(-c2ccc(F)cc2)c1/C=C/[C@@H](O)C[C@@H](O)CC(=O)O		human	10 mg, compound alone		Tmax	4 h
COc1ccc2c3c([nH]c2c1)[C@H](CC(C)C)N1C(=O)[C@H](CC(=O)O)NC(=O)[C@@H]1C3	PPIX efflux, inhibitor	A549	1 µM, 2 h, added: 1 mM ALA		inhibition	18%
CN1C[C@@H]2C[C@H]1CN2c1cc2c(cc1F)c(=O)c(C(=O)O)cn2C1CC1	substrate	MDCK-II transduced with human ABCG2	10 µM, 4 h, apical to basolateral		transport	13.3 ± 3.01%
